Published values from different studies.
Every numbered part comes from another study and shows a few of its results, in no order.

Block 1
Target: Fragile X messenger ribonucleoprotein 1, C-terminal low-complexity region (Fmr1, Mus musculus, UniProt P35922)
Technique: RNA Bind-n-Seq
Molecule type: RNA
Sample: in vitro
Concentration: 200 nM
Setting: whole 134-nt RNA, ends assumed
With: 150 mM KCl
Reference: input library
Direction: higher = stronger binding
Shared flanks, not repeated: GGGAGUUCUACAGUCCGACGAUC … UGGAAUUCUCGGGUGUCAAGG
Sequence	log2 enrichment
UGGCCCUGGUGGCAUGCGGGGAGGAAGAGGUGGCCUCAUGGAUCGUGGUGGUCCCGGUGGGAUGUUCAGAGGUGGCCGUGGUGGAGACAG	0.0385
AGUCCUGUGCUACACAUCGUAUGUACCGAAUCGGCCCCCGGGCCCCCGGCCCCCGGGAAAGUAUUAUGUUACGCCGUUCGGAUCUGCACU	-0.55
CCUCAAGUCCUGUGCUACACAUCGUAUGUACCGAAUCGGGAGGGGAGGGGAGGAAAGUAUUAUGUUACGCCGUUCGGAUCUGCACUUCCA	0.563
AGUCCUGUGCUACACAUCGUAUGUACCGAAUCGGGAAAAAAAGGGAAAGGGAAAGGGAAAGUAUUAUGUUACGCCGUUCGGAUCUGCACU	0.0618
AGUCCUGUGCUACACAUCGUAUGUACCGAAUCGGGAGGGAAAAAAAGGGAAAAAGGGAAAGUAUUAUGUUACGCCGUUCGGAUCUGCACU	0.236
CACAGACAACACGCACCCACACAGACACAGAGGCAAGGGGUUGGGAUGGGGACAGGGUGCACAGCAGGGCGGGGUAGGACCCCAGCCCCU	1.31
CUGUGCUACACAUCGUAUGUACCGAAUCGGGGAAAAAAAGGGGAAAAAGGGGUUUUUGGGGAAAGUAUUAUGUUACGCCGUUCGGAUCUG	-0.0571
ACCAUGCAGGUGGGCAUCUUUGGGAAGUGGGGCAAGGGGGGGAUAGGGAGGGGGGUAACACUUUGGGCACAGGUGGUCCCAGGUCGUUUC	0.481

Block 2
Target: RING finger protein unkempt homolog, zinc fingers 1-6, SBP tag (UNK, Homo sapiens, UniProt Q9C0B0, residues 30-357)
UniProt Q9C0B0, sequence (30-357, looked up): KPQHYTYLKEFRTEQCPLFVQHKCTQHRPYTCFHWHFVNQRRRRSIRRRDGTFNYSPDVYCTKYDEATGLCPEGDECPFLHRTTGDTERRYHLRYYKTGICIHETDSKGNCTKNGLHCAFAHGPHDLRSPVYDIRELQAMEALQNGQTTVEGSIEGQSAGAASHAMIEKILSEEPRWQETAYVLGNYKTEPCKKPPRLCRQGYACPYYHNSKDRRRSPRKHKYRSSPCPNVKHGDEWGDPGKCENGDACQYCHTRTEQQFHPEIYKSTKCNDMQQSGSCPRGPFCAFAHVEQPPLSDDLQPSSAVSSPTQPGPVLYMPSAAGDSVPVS
Technique: RNA Bind-n-Seq
Molecule type: RNA
Sample: in vitro
Concentration: 100 nM
Setting: RNA with constant flanks, vertebrate orthologous sites, ends assumed
Reference: input RNA pool
Direction: higher = stronger binding
Shared flanks, not repeated: GGGAGUUCUACAGUCCGACGAUC … CAACAGAGGAUUGAGCAUCA
Sequence	bound/input enrichment
GCCUCUGAACCCCAUAUCUUCUGUUUCAUAAUGCAGAAGUGUUCUUUUUAAUUAUAUUAGUGGACUUGUUUUAAUUUUAGAGAGACUUCCAGUACAGAUACUGUGAGCUGACAUGGAAAA	2.47 ratio
AGCAACUCAAGGAUUCAGAACUGGUUUUACAAAUGUCCCAAGCAGAUUUGGAACCAACGCUCGUGGUCAACCCCGACCGUAAUAAACACCGUUAUUUAUUAUACUUAAGGGUAUUGACUU	0.301 ratio
UGUACUUGGAAAAAAAUCAUCUUUAGUUUUAAACUAGUCACGGUGAUACCUAUUCUGUGCUAGUGGAAUCAUUUACUCUUACCUUUUAAACUAUCUCCUCUGUCUGAUACCUGAAACCAG	0.851 ratio
CUGUGAACAACUCAGGGCAGUAUCCCCCAUACUCUCCGUACAGCAACCUCAAUCAGGGAUUAGUAAACAAUACAGGGAUGAGUCCCAACAUGAGCCUUACCAGCAGCAGUGCCCCUAUGA	0.582 ratio
AAAUUAUAGCAAAAGAGCCAAGCAGUAGUAUUGUGGGGGUUUUUGUAAAUGUAAAAUACUUAGGUUCAGACUUUGUUUCCUUCAAUUUUAAAAAUAAAAGAUACCUCAGUGCUAUAAUGU	0.341 ratio
AAAUUUAUUUCAUGCCCUGGACCCCCUACCGUACUGAUACUUUAAUAGAAUAUGCUUCUUUAGAAGAUUUCCAAAAUAGUCGCCAAACAACAACAUACAAACUUCCAAAUCGAGUAGAUG	2.3 ratio

Block 3
Cell line: HEK-293T
Effect on: pseudovirus infection
Technique: FDA-approved drug library screen
Organism: VSV pseudotyped with SARS-CoV-2 spike
Concentration: 10 µM
Time: 16 h
Reference: vehicle-treated
Structure (SMILES)	GFP-positive cells
CC1Cc2ccccc2N1NC(=O)c1ccc(Cl)c(S(N)(=O)=O)c1 (centres unmarked)	82%
Cc1ccc(Cl)c(Nc2ccccc2C(=O)O)c1Cl	126%
CCc1ccc(CCOc2ccc(CC3SC(=O)NC3=O)cc2)nc1 (centres unmarked)	91.3%

Block 4
Target: Protein C-ets-1 (ETS1, Homo sapiens, UniProt P14921, residues 1-441, K379A, full length assumed)
Technique: protein-binding microarray
Molecule type: double-stranded DNA, one strand shown
Sample: in vitro
Concentration: not given
Setting: k-mer, scored over probes, only values ≥0.25
Direction: higher = stronger binding
Construct (chain): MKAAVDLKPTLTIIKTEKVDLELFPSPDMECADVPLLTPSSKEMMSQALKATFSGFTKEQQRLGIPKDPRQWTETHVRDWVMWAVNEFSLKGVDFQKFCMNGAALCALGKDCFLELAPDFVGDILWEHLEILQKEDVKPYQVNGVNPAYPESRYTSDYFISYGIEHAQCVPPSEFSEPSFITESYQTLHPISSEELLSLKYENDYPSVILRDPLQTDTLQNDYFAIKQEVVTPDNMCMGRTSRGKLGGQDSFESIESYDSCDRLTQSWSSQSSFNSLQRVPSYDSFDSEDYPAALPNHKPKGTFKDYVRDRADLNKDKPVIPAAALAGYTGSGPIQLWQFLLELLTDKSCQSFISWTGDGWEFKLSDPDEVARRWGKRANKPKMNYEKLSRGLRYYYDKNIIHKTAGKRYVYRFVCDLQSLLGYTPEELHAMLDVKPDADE
Sequence	E-score
ACTATAGT	0.264
ATTCCCGG	0.344
ACCGGAAT	0.413
AATACCGC	0.252

Block 5
Target: Replicase polyprotein 1ab, nsp13 helicase (rep, Severe acute respiratory syndrome coronavirus 2, UniProt P0DTD1)
Mode: inhibitor
Concentration: 20 µM
SMILES	inhibition
COc1cc(N)c(Cl)cc1C(=O)N[C@@H]1CCN(CCCOc2ccc(F)cc2)C[C@@H]1OC (racemic)	-5.61%
CCNC(=O)NS(=O)(=O)c1sc(CC(C)C)cc1-c1ccc(Cn2c(-c3ccccc3)nc(OC)c2C=O)cc1	8.16%
OCCCNc1cc(-c2ccnc(Nc3cccc(Cl)c3)n2)ccn1	3.66%
CS(=O)(=O)c1ccc(-c2cnc(N)c(C(=O)Nc3ccccc3)n2)cc1	2.66%
O=C(NO)c1cnc(N2CCN(S(=O)(=O)c3ccc4ccccc4c3)CC2)nc1	4.21%
CO[C@H]1[C@H](O)[C@H](O[C@H]2CC[C@@]3(C=O)[C@H](CC[C@@H]4[C@@H]3CC[C@]3(C)[C@@H](C5=CC(=O)OC5)CC[C@]43O)C2)O[C@@H](C)[C@@H]1O	2.57%
O=C(O)/C=C/c1ccc(O)c(O)c1	6.69%
CN1CC[C@@]2(C)c3cc(O)ccc3N(C)[C@@H]12	26.3%
COCCCC/C(=N\OCCN)c1ccc(C(F)(F)F)cc1	-1.78%
O=C(Nc1ccccc1F)N[C@H]1N=C(c2ccccc2)c2ccccc2NC1=O	6.96%
CCCCCCCC[N+](C)(C)Cc1ccccc1	-0.34%
CCCN1CCN(c2ccc(C(=O)NC3(C(=O)NCC#N)CCCCC3)cc2)CC1	0.42%
CN(C(=O)Cc1ccc(Cl)c(Cl)c1)[C@H](CN1CCCC1)c1ccccc1	-1.8%
O=C(CN1C2=NCCN2c2ccccc21)c1ccc(-c2ccccc2)cc1	14.3%
NC(N)=NCCC(=O)O	-3.28%
CCCN(CCC)C1CCc2ccc(O)cc2C1 (centres unmarked)	4.72%
CN(C)NC(=O)CCC(=O)O	2.46%
O=C1CCC(N2C(=O)c3ccccc3C2=O)C(=O)N1 (centres unmarked)	2.74%
CS(=O)(=O)c1ccc([C@@H](O)[C@@H](CF)NC(=O)C(Cl)Cl)cc1	3.83%
CCn1cc(C(=O)O)c(=O)c2cc(F)c(N3CCNCC3)cc21	2.3%
C/N=C(/NC#N)NCCSCc1csc(NC(=N)N)n1	-4.64%
C=C[C@@](C)(/C=C/c1ccc(O)cc1)CCC=C(C)C	2.7%
CC(=O)C(=O)O	1.72%
CC[C@@]1(O)C(=O)OCc2c1cc1n(c2=O)Cc2cc3ccccc3nc2-1	1.11%
CCN(c1ccccc1)c1cc(=NC)n(C)c(C)n1	0.72%

Block 6
Target: Replicase polyprotein 1ab, main protease (rep, Severe acute respiratory syndrome coronavirus 2, UniProt P0DTD1)
Effect on: enzyme activity
Mode: inhibitor
Concentration: 20 µM
Structure (SMILES)	inhibition
Cc1cc(C)cc(N2C(=O)CC(Sc3nnc[nH]3)C2=O)c1 (centres unmarked)	15.9%
O=C(CC1Sc2ncnn2C1=O)Nc1ccc(Br)cc1 (centres unmarked)	39.5%
CCN(CC)C(=S)S	-13.9%
CC(C)(C)c1ccc(S(=O)(=O)/C=C/C#N)cc1	-7.9%

Repeated from above (block 2):
Sequence	bound/input enrichment
GCCUCUGAACCCCAUAUCUUCUGUUUCAUAAUGCAGAAGUGUUCUUUUUAAUUAUAUUAGUGGACUUGUUUUAAUUUUAGAGAGACUUCCAGUACAGAUACUGUGAGCUGACAUGGAAAA	2.47 ratio
AGCAACUCAAGGAUUCAGAACUGGUUUUACAAAUGUCCCAAGCAGAUUUGGAACCAACGCUCGUGGUCAACCCCGACCGUAAUAAACACCGUUAUUUAUUAUACUUAAGGGUAUUGACUU	0.301 ratio
UGUACUUGGAAAAAAAUCAUCUUUAGUUUUAAACUAGUCACGGUGAUACCUAUUCUGUGCUAGUGGAAUCAUUUACUCUUACCUUUUAAACUAUCUCCUCUGUCUGAUACCUGAAACCAG	0.851 ratio
CUGUGAACAACUCAGGGCAGUAUCCCCCAUACUCUCCGUACAGCAACCUCAAUCAGGGAUUAGUAAACAAUACAGGGAUGAGUCCCAACAUGAGCCUUACCAGCAGCAGUGCCCCUAUGA	0.582 ratio
AAAUUAUAGCAAAAGAGCCAAGCAGUAGUAUUGUGGGGGUUUUUGUAAAUGUAAAAUACUUAGGUUCAGACUUUGUUUCCUUCAAUUUUAAAAAUAAAAGAUACCUCAGUGCUAUAAUGU	0.341 ratio
AAAUUUAUUUCAUGCCCUGGACCCCCUACCGUACUGAUACUUUAAUAGAAUAUGCUUCUUUAGAAGAUUUCCAAAAUAGUCGCCAAACAACAACAUACAAACUUCCAAAUCGAGUAGAUG	2.3 ratio
